Published values pooled from the literature.
Values joined by “and” are separate records of one study, mostly repeats; a detail may differ. ± gives the spread as reported.

`C[C@H](NC(=O)Cc1cc(F)cc(F)c1)C(=O)N[C@@H]1C(=O)N(C)c2ccccc2-c2ccccc21` gave a CC50 of 49.3 µM (NHDF; cell viability, CellTiter-Glo; 48 h, uninfected).
For `COc1cc(/C=C/c2ccc3c(c2)[C@@H](c2cc(O)cc(O)c2)[C@H](c2ccc(O)cc2)O3)cc(OC)c1`, the CC50 was 345 µM (dog cells; 1 (unit not given)).
`O=C1NC2(CC2)COc2ncc(F)cc2[C@H]2COCCN2c2ccn3ncc1c3n2`: “organ-to-body weight ratio” 0.088 ± 0.012% (Sprague-Dawley rat, male, thymus; oral, 2.5 mg/kg/day, 4 weeks dosing, end of recovery).
`C#CCNC(=O)C[C@H](Cc1ccc(F)cc1)NC(=O)[C@@H](Cc1ccc(Cl)cc1Cl)NC(=O)[C@H](N)Cc1ccccc1C#N` has a cytosolic concentration of 10 µM and 9.1 µM and 10.5 µM (HEK-293T; LC-MS, digitonin-released cytosol; 10 µM, 4 h).
`CC(C)CC(NC(=O)OCc1ccccc1)C(=O)NC(CC1CCNC1=O)C(=O)C(=O)NC1CC1` (centres unmarked) has a CC50 of over 250 µM (MRC5; 5 (unit not given)).
`CC(=O)NCC(=O)N[C@@H](CCCNC(=N)N)C(=O)N[C@@H](CCCCN)C(=O)N[C@@H](CCCCN)C(=O)N[C@@H](CCCNC(=N)N)C(=O)N[C@@H](CCCNC(=N)N)C(=O)N[C@@H](CCC(N)=O)C(=O)N[C@@H](CCCNC(=N)N)C(=O)N[C@@H](CCCNC(=N)N)C(=O)N[C@@H](CCCNC(=N)N)C(=O)N1CCC[C@H]1C(=O)N[C@@H](CCC(N)=O)C(N)=O` has a peptide amount of 0.0378 nmol and 0.0224 nmol and 0.0335 nmol (HEK-293T; subcellular fractionation LC-MS; nuclear fraction; 20 µM, 2 h).
`CC(C)[C@H](NC(=O)[C@H](Cc1ccc(O)cc1)NC(=O)[C@H](CS)NC(=O)[C@@H](NC(=O)[C@H](CCCNC(=N)N)NC(=O)[C@H](Cc1ccccc1)NC(=O)[C@H](CS)NC(=O)[C@H](Cc1c[nH]c2ccccc12)NC(=O)[C@@H](N)CCCNC(=N)N)C(C)C)C(=O)NCC(=O)N[C@@H](Cc1ccccc1)C(=O)N[C@@H](CS)C(=O)N[C@@H](Cc1ccc(O)cc1)C(=O)N[C@@H](Cc1c[nH]c2ccccc12)C(=O)N[C@@H](CCCCN)C(=O)N[C@@H](CS)C(=O)N[C@@H](CCCNC(=N)N)C(=O)O` has an HC50 of 3.23 log10 µg/mL (rat erythrocytes; haemolysis; 1 h, 37 °C, 2% erythrocytes in PBS).
For `CC[C@H](C)[C@H](NC(=O)[C@@H](NC(=O)[C@H](C)NC(=O)[C@H](C)NC(=O)[C@H](CCC(N)=O)NC(=O)CNC(=O)[C@@H](NC(=O)[C@@H](NC(=O)[C@H](C)NC(=O)[C@@H](NC(=O)[C@H](C)NC(=O)[C@@H]1CCCN1C(=O)CNC(=O)[C@H](C)NC(=O)[C@H](CCCCN)NC(=O)[C@@H](NC(=O)[C@@H](NC(=O)CNC(=O)[C@H](CC(=O)O)NC(=O)[C@H](CCCNC(=N)N)NC(=O)[C@@H](NC(=O)[C@H](CC(N)=O)NC(=O)[C@H](CCC(N)=O)NC(=O)CNC(=O)[C@@H](NC(=O)[C@H](CCCCN)NC(=O)[C@H](CCC(=O)O)NC(=O)[C@@H](NC(=O)[C@H](CCCCN)NC(=O)[C@H](CCCCN)NC(=O)[C@H](Cc1ccccc1)NC(=O)[C@@H](NC(=O)[C@H](CCCCN)NC(=O)[C@H](Cc1c[nH]c2ccccc12)NC(=O)[C@@H](N)CCCNC(=N)N)[C@@H](C)CC)[C@@H](C)CC)C(C)C)[C@@H](C)CC)[C@@H](C)CC)C(C)C)C(C)C)C(C)C)C(C)C)[C@@H](C)O)C(N)=O`, cytotoxicity read “not toxic” (MCF7; CCK-8; 8 µM, 24 h, 1% FBS).
For `CC[C@H](C)[C@H](NC(=O)[C@H](C)NC(=O)[C@H](CCCCN)NC(=O)[C@H](CCCCN)NC(=O)[C@@H](N)CCCNC(=N)N)C(=O)N[C@@H](CCCCN)C(=O)N[C@@H](CC(C)C)C(=O)N[C@H](C(=O)N[C@@H](CCCCN)C(=O)N[C@@H](CCCCN)C(=O)N[C@@H](CC(C)C)C(=O)N[C@H](C(=O)N[C@@H](CCCCN)C(=O)N[C@@H](CCCCN)C(=O)N[C@@H](CC(C)C)C(=O)N[C@@H](CCCCN)C(=O)N[C@@H](CCCCN)C(=O)N[C@@H](C)C(=O)N[C@@H](CC(C)C)C(=O)N[C@@H](CCCCN)C(=O)O)C(C)C)C(C)C`, the viability was 86% (HaCaT; cell growth or viability, MTT; 64 µg/mL).
`CNC(=O)CC[C@H](Cc1ccccc1)NC(=O)[C@@H](Cc1ccc(Cl)cc1Cl)NC(=O)[C@H](N)Cc1ccccc1[N+](=O)[O-]` gave a viability of 0.964 and 0.96 and 0.95 (Huh-7-ACE2; CellTiter-Glo; 3.125 µM, 48 h, unit not given; relative to: DMSO).
Under “minimum haemolytic concentration”, `CC[C@H](C)[C@H](NC(=O)[C@@H](NC(=O)[C@H](CCCCN)NC(=O)[C@H](CCCCN)NC(=O)[C@@H](NC(=O)[C@H](Cc1c[nH]c2ccccc12)NC(=O)[C@H](CCCCN)NC(=O)[C@H](CCCCN)NC(=O)[C@H](CC(C)C)NC(=O)[C@H](CCCNC(=N)N)NC(=O)[C@H](CCCCN)NC(=O)[C@@H](N)C(C)C)[C@@H](C)CC)C(C)C)C(N)=O` is recorded as over 256 µM (sheep red blood cells; 10% haemolysis; 1 h, 37 °C).

Excerpt of the above:
`CC(=O)NCC(=O)N[C@@H](CCCNC(=N)N)C(=O)N[C@@H](CCCCN)C(=O)N[C@@H](CCCCN)C(=O)N[C@@H](CCCNC(=N)N)C(=O)N[C@@H](CCCNC(=N)N)C(=O)N[C@@H](CCC(N)=O)C(=O)N[C@@H](CCCNC(=N)N)C(=O)N[C@@H](CCCNC(=N)N)C(=O)N[C@@H](CCCNC(=N)N)C(=O)N1CCC[C@H]1C(=O)N[C@@H](CCC(N)=O)C(N)=O` has a peptide amount of 0.0378 nmol and 0.0224 nmol and 0.0335 nmol (HEK-293T; subcellular fractionation LC-MS; nuclear fraction; 20 µM, 2 h).
